Experimental data of several laboratories.
± gives the spread as reported. In brackets after ≈: the same amount, converted by molar mass.

C=Cc1cc(O)cc2nc(-c3ccc(O)c([76Br])c3)oc12  tissue uptake (female C57BL/6 mouse, lung; 1 h, low dose): 0.33 ± 0.05 %ID/g
COc1cc(C(=O)NCCOCCOCCOCCNC(=O)c2ccc([18F])nc2)ccc1NC(=O)C1NC(CC(C)(C)C)C(C#N)(c2ccc(Cl)cc2F)C1c1cccc(Cl)c1F (stereo not drawn)  tracer uptake (HepG2 tumour model; host not given, lung; 30 min, tumour-bearing): 3.59 %ID/g
CCCC[C@H](NC(=O)CCOCCOCCNC(=O)CN1CCN(CC(=O)O)CCN(CC(=O)O)CCN(CC(=O)O)CC1)C(=O)N[C@H]1CC(=O)NCCCC[C@@H](C(N)=O)NC(=O)[C@H](Cc2c[nH]c3ccccc23)NC(=O)[C@H](CCCNC(=N)N)NC(=O)[C@@H](Cc2ccccc2)NC(=O)[C@H](Cc2c[nH]cn2)NC1=O [gallium-68 labelled]  intact compound (radio-HPLC; mouse, plasma; intravenous, 8 to 12 MBq, 5 min post injection): > 99%
CN(CC(=O)N(Cc1ccc(C2CCCCC2)cc1)c1ccc(C(=O)O)cc1)S(=O)(=O)c1c(F)c(F)c(F)c(F)c1F  plasma concentration (CD-1 mouse; intravenous, 5 mg/kg, 15 min): 4.43 ng/mL
CCCCCCCC(=O)OC[C@H](NC(=O)[C@H](CO)NC(=O)CN)C(=O)N[C@@H](Cc1ccccc1)C(=O)N[C@@H](CC(C)C)C(=O)N[C@@H](CO)C(=O)N1CCC[C@H]1C(=O)N[C@@H](CCC(=O)O)C(=O)N[C@@H](Cc1cnc[nH]1)C(=O)N[C@@H](CCC(N)=O)C(=O)N[C@@H](CCCNC(=N)N)C(=O)N[C@H](C(=O)N[C@@H](CCC(N)=O)C(=O)N[C@@H](CCC(N)=O)C(=O)N[C@@H](CCCNC(=N)N)C(=O)N[C@@H](CCCCN)C(=O)N[C@@H](CCC(=O)O)C(=O)N[C@@H](CO)C(=O)N[C@@H](CCCCN)C(=O)N[C@@H](CCCCN)C(=O)N1CCC[C@H]1C(=O)N1CCC[C@H]1C(=O)N[C@@H](C)C(=O)N[C@@H](CCCCN)C(=O)N[C@@H](CC(C)C)C(=O)N[C@@H](CCC(N)=O)C(=O)N1CCC[C@H]1C(=O)N[C@@H](CCCNC(=N)N)C(=O)O)C(C)C  mean residence time (human, both sexes, plasma; intravenous infusion, 5 µg/kg/h, 65 min infusion): 0.75 ± 0.0333 h
CCC(CC)OC1C=C(C(=O)OC(C)OC(=O)C(N)C(C)C)CC(NC(=N)N)C1NC(C)=O (mixture of isomers)  AUC(0-24 h) (mice, plasma; IV, 1 mg/kg, 24 h): 641 ± 52 ng·h/mL
CC(C)[C@@H]1NC(=O)[C@H](Cc2ccccc2)NC(=O)[C@H](Cc2ccc(O)cc2)NC(=O)CCSSC[C@@H](C(=O)N2CCC[C@H]2C(=O)N[C@H](CCCNC(=N)N)C(=O)NCC(N)=O)NC(=O)[C@H](CCC(N)=O)NC1=O  GGT (Wistar rat, blood; intravenous, 10 µg/kg single dose, 72 h): 3.2 ± 1.1 IU/L
N=C(N)NCc1ccc(C(=O)NCCCC[C@H](NC(=O)N[C@@H](CCC(=O)O)C(=O)O)C(=O)O)cc1[131I]  tissue uptake (SCID mouse, PC-3 xenografts, bone; 4 h): 0.17 ± 0.06 %ID/g
NC(=O)CC[C@@H]1NC(=O)[C@H](Cc2ccccc2)NC(=O)[C@H](Cc2ccc(O)cc2)NC(=O)[C@@H](N)CSSC[C@@H](C(=O)N2CCC[C@H]2C(=O)N[C@@H](CCCN=C(N)N)C(=O)NCC(N)=O)NC(=O)[C@H](CC(N)=O)NC1=O  plasma level reduction (radioimmunoassay; Sprague-Dawley rat, plasma; intra-arterial, 100 ng/kg, 5 min; relative to: 1 min post-injection): ~99%
[CH3][Ti+2][O]C(=O)c1ccc([S][Au][PH](c2ccccc2)(c2ccccc2)c2ccccc2)cc1.c1cc[cH-]c1.c1cc[cH-]c1  pH (DMSO/water; 5 × 10 µM): 5.13
CCCCCCCCCCCCC(=O)O.O=C1CCCC2C3CCCN4CCCC(CN12)C34 (stereo not drawn)  standard enthalpy of micellization (electrical conductivity; water; 303.15 K, critical micelle concentration): -4.44 kJ/mol
CN(C)C(CNC(=O)Nc1cc(C(F)(F)F)ccc1N1CCOCC1)c1ccncc1 (stereo not drawn)  blood urea nitrogen (mouse, serum; intraperitoneal, 240 mg/kg single dose): 26 mg/dL
CN(C)CC1CCCCC1(O)c1cccc(O)c1 (stereo not drawn)  Papp A-to-B (human P-glycoprotein; Caco-2 TC7 monolayer; 50 µM, 3 h, apical pH 6.8, basolateral pH 7.4, added: cyclosporine A 10 µM): 5.3 ± 0.5 ×10⁻⁶ cm/s
CC1(C)C(=O)N(c2ccc(C#N)c(C(F)(F)F)c2)C(=S)N1c1ccc(C(N)=O)c(F)c1  MRT (human, male, plasma; oral, 160 mg, single dose, after high-fat meal): 16.8 ± 2.63 days
[2H]C([2H])([2H])C([2H])([2H])C([2H])([2H])OC(C(=O)OC1CCNCC1)(c1ccccc1)c1ccccc1  Tmax (male human, plasma; oral, 18 mg, multiple doses): 4.9 h
N=C(N)NCCC[C@@H]1NC(=O)[C@H](CCCCNC(=O)CC[C@H](NC(=O)CCOCCOCCOCCOCCNC(=O)CN2CCN(CC(=O)O)CCN(CC(=O)O)CCN(CC(=O)O)CC2)C(=O)NCCCC[C@@H]2NC(=O)[C@@H](Cc3ccccc3)NC(=O)[C@H](CC(=O)O)NC(=O)CNC(=O)[C@H](CCCNC(=N)N)NC2=O)NC(=O)[C@@H](Cc2ccccc2)NC(=O)[C@H](CC(=O)O)NC(=O)CNC1=O [indium-111 labelled]  tissue uptake (female athymic nude mice, intestine; intravenous, 3 µCi, 0.5 h, U-87 MG glioma xenograft): 4.58 ± 1.49 %ID/g
O=P1(NCCCl)NCCCO1 (stereo not drawn)  MRT(0-inf) (rat, plasma; intravenous, 10 mg/kg CP, added: ketoconazole 10 mg/kg oral 50 min before): 4.92 ± 0.513 h
C[C@H](CCC(=O)N[C@@H](CCCCNC(=O)C(F)(F)F)C(=O)O)[C@H]1CC[C@H]2[C@@H]3[C@H](O)C[C@@H]4C[C@H](O)CC[C@]4(C)[C@H]3C[C@H](O)[C@]12C  AUC(0-24 h) (C57BL/6J mice, liver; oral, 50 mg/kg): 0.232 mM·h
CC(C)[C@H](NC(=O)[C@H](Cc1c[nH]c2ccccc12)NC(=O)[C@H](Cc1ccccc1)NC(=O)[C@@H](NC(=O)[C@@H](NC(=O)[C@H](CCCCN)NC(=O)[C@@H](N)CCCCN)C(C)C)C(C)C)C(=O)N[C@@H](CCCCN)C(=O)N[C@@H](Cc1ccccc1)C(=O)N[C@@H](CCCCN)C(N)=O  serum antibody level (ELISA, measured: IgG2a; mouse, serum; iv, 500 µg/kg twice, 5 days): 0.235 ± 0.017 OD490
CCCCCCCC(=O)SCC/C=C/[C@@H]1CC(=O)NCc2nc(cs2)C2=N[C@@](C)(CS2)C(=O)N[C@@H](C(C)C)C(=O)N1  alpha rate constant (mouse NIH Swiss, female; intravenous, 5 mg/kg): 0.248 min⁻¹
CC[C@H](C)[C@@H]1NC(=O)[C@H](CCCCN)NC(=O)[C@H](CCCCN)NC(=O)[C@H](Cc2ccc(O)cc2)NC(=O)[C@H](CC(C)C)NC(=O)[C@@H]2CCCN2C(=O)[C@H](C)NC(=O)CNC(=O)CNC(=O)[C@H](CO)NC(=O)CNC(=O)CNC(=O)[C@H](CO)NC(=O)[C@H](CCC(=O)O)NC(=O)[C@H](CC(C)C)NC(=O)[C@H](CC(C)C)NC(=O)[C@H](CCCCN)NC(=O)[C@H](CCCCN)NC(=O)[C@H]([C@@H](C)CC)NC(=O)[C@H]([C@@H](C)CC)NC(=O)[C@H](CCCCN)NC(=O)[C@H](CCCCN)NC(=O)[C@H](Cc2ccc(O)cc2)NC(=O)[C@H](CC(C)C)NC(=O)[C@@H]2CCCN2C(=O)CNC(=O)CNC(=O)[C@@H](NC(=O)CN)CSSC[C@@H](C(N)=O)NC(=O)[C@H](CC(C)C)NC(=O)[C@H](CCCCN)NC(=O)[C@H](CCCCN)NC(=O)[C@H]([C@@H](C)CC)NC1=O  HC10 (hemolysis; uninfected human erythrocytes; 1 h): 25.7 ± 2.1 µM
[11CH3]n1c(=O)n(CCCO)c(=O)c2c1nc(Oc1cccc(OC(F)(F)F)c1)n2Cc1ccc(Cl)cc1  tracer uptake (ex vivo biodistribution; Sprague Dawley rat, muscle; 30 min post injection): 0.5 ± 0.02 %ID/g
CC(C)[C@H](NC(=O)CNC(=O)[C@H](CCC(N)=O)NC(=O)[C@H](C)N)C(=O)O  subjects with severe adverse events (human; 30 mg/kg single dose): 0%
CC(C)(CCCC/C=C/CCCCCC(C)(C)C(=O)O)C(=O)O  clearance (ICR mouse, plasma; intravenous, 10 mg/kg): 1.31 mL/min/kg
CSCC[C@@H]1NC(=O)[C@@H]2CSSC[C@H](NC(=O)[C@H](CO)NC(=O)[C@H](C)N)C(=O)N[C@@H](CCCNC(=N)N)C(=O)N[C@@H]([C@@H](C)O)C(=O)N3CCC[C@H]3C(=O)N[C@@H](CCCCN)C(=O)N[C@@H](CC(=O)O)C(=O)N[C@H]3CSSC[C@H](NC(=O)[C@H](CCCCN)NC(=O)[C@H](CCCNC(=N)N)NC(=O)[C@H](CC(N)=O)NC1=O)C(=O)N[C@@H](CCCCN)C(=O)N[C@H]1CSSC[C@H](NC(=O)[C@@H]4CCCN4C(=O)[C@H](CC(=O)O)NC(=O)[C@H](C)NC3=O)C(=O)N[C@@H](C)C(=O)N[C@@H](CCCCN)C(=O)N[C@@H](CCC(=O)O)C(=O)N[C@@H]([C@@H](C)O)C(=O)NCC(=O)N[C@@H](CSSC[C@@H](C(N)=O)NC(=O)[C@H](CCCNC(=N)N)NC(=O)[C@H](CC(N)=O)NC1=O)C(=O)N1CCC[C@H]1C(=O)N[C@@H](Cc1ccc(O)cc1)C(=O)NCC(=O)N[C@@H](CCCCN)C(=O)N2  osmolality (DA rat, pristane-induced arthritis, serum; subcutaneous, single 0.1 mg/kg at onset, end of 21-day trial): 264 mOsm/kg
Cc1ccc(/C=C/C(=O)O)cc1-c1cc2c(cc1C)C(C)(C)CCC2(C)C  LDL level (Sprague-Dawley rat, male, plasma; oral, 100 mg/kg, 24 h, sesame oil vehicle): 7 mg/dL
CCNc1cc2[o+]c3cc(NCC)c(C)cc3c(-c3ccccc3C(=O)OCCOCC[18F])c2cc1C  tissue uptake ratio (rat; 15 min; relative to: heart over liver): 1.3
Fc1ccc2nc3c4cccnc4c4ncccc4c3nc2c1.[Cl-].[Cl-].[Ru+2].c1ccncc1.c1ccncc1.c1ccncc1.c1ccncc1  hemolysis (red blood cells, rabbit; 20 µM, 2 h, 37 °C): 0.65 ± 0.01%
C#Cc1c(F)ccc2cc(O)cc(-c3ncc4c(N5CC6CCC(C5)N6C(=O)OCCCCC)nc(OC[C@@]56CCCN5C[C@H](F)C6)nc4c3F)c12  half-life (metabolic stability; mouse, liver microsomes; 1 µM, pH 7.4): 139 min
CN[C@](C)(C[18F])C(=O)O  tissue uptake (SCID mouse MDA-MB-468 xenograft, blood; 60 min post injection): 1 ± 0.3 %ID/g
C=C1C(=O)O[C@@H]2C[C@H](C)[C@@H]3C[C@H](O[Si](C)(C)C)[C@H](O[Si](C)(C)C)[C@@]3(C)C[C@H]12  CC50 (propidium iodide flow cytometry; primary splenocytes, BALB/c mouse; 48 h, 10% fetal calf serum): 27.3 ± 0.4 µg/mL (≈ 66.5 µM)
CC(C)[C@@H](CN1CC[C@@](C)(c2cccc(C(N)=O)c2)[C@@H](C)C1)NC(=O)[C@H]1Cc2ccc(O)cc2CN1  kinetic solubility (10 mM phosphate buffer; 90 min, pH 7.4, room temperature, 1% DMSO): 54 µM (≈ 26.6 µg/mL)
COc1ccc(CNc2nc(N3CCC[C@H]3CO)ncc2C(=O)NN)cc1Cl  revertant count (Salmonella typhimurium; TA98; 250 µg/plate, 48 h, added: rat liver S9): 42 ± 3
C/C=C/C=C/C/C=C/CCCCCCCc1cccc(O)c1O  tissue concentration (female Kunming mice, tumour-bearing, liver; intravenous, 10 mg/kg, 8 h): 10600 ± 1650 ng/g
CC(=O)NCC(=O)N[C@@H](CO)C(=O)N[C@@H](CCCCNP(=O)(O)O)C(=O)NCC(=O)NCC(N)=O  first-order rate constant (non-enzymatic hydrolysis; 100 µM, pH 7.8, no enzyme): 2.47e-05 s⁻¹
CC[C@H](C)C(=O)N1CCC(NC(=O)Nc2ccc(OC(F)(F)F)c(F)c2)CC1  AUC (human, plasma; oral, 16 mg, single dose, healthy volunteers): 4450 ng·h/mL

A few entries again:
CCC(CC)OC1C=C(C(=O)OC(C)OC(=O)C(N)C(C)C)CC(NC(=N)N)C1NC(C)=O (mixture of isomers)  AUC(0-24 h) (mice, plasma; IV, 1 mg/kg, 24 h): 641 ± 52 ng·h/mL
CC(C)[C@@H]1NC(=O)[C@H](Cc2ccccc2)NC(=O)[C@H](Cc2ccc(O)cc2)NC(=O)CCSSC[C@@H](C(=O)N2CCC[C@H]2C(=O)N[C@H](CCCNC(=N)N)C(=O)NCC(N)=O)NC(=O)[C@H](CCC(N)=O)NC1=O  GGT (Wistar rat, blood; intravenous, 10 µg/kg single dose, 72 h): 3.2 ± 1.1 IU/L
N=C(N)NCc1ccc(C(=O)NCCCC[C@H](NC(=O)N[C@@H](CCC(=O)O)C(=O)O)C(=O)O)cc1[131I]  tissue uptake (SCID mouse, PC-3 xenografts, bone; 4 h): 0.17 ± 0.06 %ID/g
NC(=O)CC[C@@H]1NC(=O)[C@H](Cc2ccccc2)NC(=O)[C@H](Cc2ccc(O)cc2)NC(=O)[C@@H](N)CSSC[C@@H](C(=O)N2CCC[C@H]2C(=O)N[C@@H](CCCN=C(N)N)C(=O)NCC(N)=O)NC(=O)[C@H](CC(N)=O)NC1=O  plasma level reduction (radioimmunoassay; Sprague-Dawley rat, plasma; intra-arterial, 100 ng/kg, 5 min; relative to: 1 min post-injection): ~99%
